# Measurements of several laboratories.
# Each numbered part is a random draw from the data of one study; scales do not carry over between parts. Positions count from the first letter of the parent shown.

# Sample 1 — target: UBE2G2 UBC core domain (UniProt P60604); technique: yeast two-hybrid; medium: yeast; setting: mostly zero background; relative to: not given; direction: higher = stronger interaction
# B1: RNF32 RING domain (UniProt Q9H0A6); chain SLLQGDSVQPCPICKEEFELRPQVLLSCSHVFHKACLQAFEKFTNKKTCPLCRKNQYQTRVIH
# B2: TRIM55 RING domain (UniProt Q9BYV6); chain TMDNLEKQLICPICLEMFTKPVVILPCQHNLCRKCASDIFQASNPYLPTRGGTTMASGGRFRCPSCRHEVVLDRHG
# B3: RNF43 RING domain (UniProt Q68DV7); chain SGSSCSSAPVCAICLEEFSEGQELRVISCLHEFHRNCVDPWLHQHRTCPLCMFNITEGDSFS
# B4: RNF149 RING domain (UniProt Q8NC42); chain EKGIDVDAENCAVCIENFKVKDIIRILPCKHIFHRICIDPWLLDHRTCPMCKLDVIKALGYW
# B5: TRIM35 RING domain (UniProt Q9UPQ4); chain PSRSFKEELLCAVCYDPFRDAVTLRCGHNFCRGCVSRCWEVQVSPTCPVCKDRASPADLRT
# B6: RNF150 RING domain (UniProt Q9ULK6); chain DKETESDFDNCAVCIEGYKPNDVVRILPCRHLFHKSCVDPWLLDHRTCPMCKMNILKALGIP
# Residues (chain): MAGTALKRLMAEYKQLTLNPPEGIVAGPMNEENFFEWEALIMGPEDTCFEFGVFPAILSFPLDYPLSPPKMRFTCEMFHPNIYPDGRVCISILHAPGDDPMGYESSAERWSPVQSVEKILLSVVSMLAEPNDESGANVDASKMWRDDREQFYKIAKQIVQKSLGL
Sequence,lacZ reporter activity
B1 (RNF32 RING domain),0
B2 (TRIM55 RING domain),0
B3 (RNF43 RING domain),1330
MANWVFCNRCFQPPHRTSCFSLTNCGHVYCDACLGKGKKNECLICKAPCRTVLLSK (RNF212 RING domain (UniProt Q495C1)),0
B4 (RNF149 RING domain),0
FLKKLEQSFMCVCCQELVYQPVTTECFHNVCKDCLQRSFKAQVFSCPACRHDLGQNYIMI (UHRF2 RING domain (UniProt Q96PU4)),0
B5 (TRIM35 RING domain),0
B6 (RNF150 RING domain),0
LKQVSIRENCCSLCCDEVADTQLKPCGHSDLCMDCALQLETCPLCRKEIVSRIRQI (RSPRY1 RING domain (UniProt Q96DX4)),14400
ISNDSETLEECMVCSDMKRDTLFGPCGHIATCSLCSPRVKKCLICKEQVQSRTKIE (MIB1 RING domain (UniProt Q86YT6)),0
SYEDKSNDFVCPICFDMIEEAYMTKCGHSFCYKCIHQSLEDNNRCPKCNYVVDNIDHLY (COP1 RING domain (UniProt Q8NHY2)),0

# Sample 2 — technique: RNA Bind-n-Seq; form: RNA; medium: in vitro; tested at: 365 nM; relative to: no-protein control; direction: higher = stronger binding
# Target: RNA binding protein fox-1 homolog 2, RRM domain, GST-SBP tag (RBFOX2, Homo sapiens, UniProt O43251-10, residues 100-194)
# Setting: natural RNA segment, single round, ends assumed
# Constant ends, left off below: GGGAGUUCUACAGUCCGACGAUC … UGGAAUUCUCGGGUGCCAA
# Residues (chain): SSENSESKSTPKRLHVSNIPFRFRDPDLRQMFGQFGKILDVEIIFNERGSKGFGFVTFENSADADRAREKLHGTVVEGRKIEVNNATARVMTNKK
Oligonucleotide,RBNS enrichment (R)
UCUGAUUCUCCGGGAGCCGUUCAAUGGUGAGGUUGAUGGGAAGACUUCCUUCCCAAAGAAAAUAGAUCCUCCAUGCAGGAUCUAGGAGAGUGACUGGGUGUGCCAAAAUA,0.309
UUUUUUUUUCUGAUUCAAAUUCUACAGUAGAAUGGAGGGCAGAAUUACUGGGACACAAUCACCACUCAGCUAGAAUGGAGAUUCAAGGAAAUGGAAGGUACUAGAAACAG,0.466
GCGUGGCCGUGUCUGUGUAUUUCUACGUGUGUCGCUCUUCAGAAGCAACCUAGUUCCUGGGGCAGCUGGACUUUGCAUGUUAGUGUGAGCCCCCAGCCCCCUGCCCGCCG,1.98
CAUAAUAAAUAGAUCUUAAACAUAGGAAAACCAUACUGUUCUGAUAAUAAAAUGCUUUCUAUGAAAUACGUUGCUUUUCUACCGAGUCAUUAUUUUAUUUAUUUAUUUUA,0.929
AAAGCUUUUCUUACAGAAAACCAUCACAGCGACAUUACCUCAUGUUUGUAUGUUUAGUUUUGUGUCUCGUAACAGUGUUCACAUUUGUGAUUCUGAUGUCAGUAUUGUGU,0.438
AUUGGAAGUAUAAGUUUUGAGUGGCAUUGUUGCCUUCUAACAAGCUCUCUGGGACUUUUAAAGUUUUAUUACUAUUAUUGCUAAUGUAUGAUUAUGGUCAGAGACUUUCA,0.426
GACACCACAGAGGAAGCCACCCCAGUUCAGGAGGUAGAGGGUGGCAUGCUAGAUACGGAAGAACAGGAGCGCCAGACGCAGGCCGUCCUCCAAGCCGUUGCAGACAAAGU,0.993
UGUCAAUUUGAAAACUACAUCUACUGUAUUAUUGCUGAAUAUUUUGUUAAUACUAAGGGACAAUUAUUUUAAGACCAUGGGUUUUGUUUUUAACAUAUUUUAUUUCUGCA,1.06

# Sample 3 — technique: DHFR PCA, deep sequencing; medium: yeast; together with: (+)-ABA 200 µM; relative to: wild-type fitted maximum; direction: higher = stronger binding
# Target: ABI1, truncated, D143A, DHFR fusion (Arabidopsis thaliana)
# Setting: methotrexate growth selection, single substitutions
# Starting sequence: PYL1, truncated, DHFR fusion (Arabidopsis thaliana); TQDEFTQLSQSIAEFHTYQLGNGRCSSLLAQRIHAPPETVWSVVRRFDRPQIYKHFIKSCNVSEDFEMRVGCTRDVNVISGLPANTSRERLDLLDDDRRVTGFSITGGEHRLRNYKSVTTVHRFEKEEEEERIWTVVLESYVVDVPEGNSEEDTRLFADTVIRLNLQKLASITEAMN; partner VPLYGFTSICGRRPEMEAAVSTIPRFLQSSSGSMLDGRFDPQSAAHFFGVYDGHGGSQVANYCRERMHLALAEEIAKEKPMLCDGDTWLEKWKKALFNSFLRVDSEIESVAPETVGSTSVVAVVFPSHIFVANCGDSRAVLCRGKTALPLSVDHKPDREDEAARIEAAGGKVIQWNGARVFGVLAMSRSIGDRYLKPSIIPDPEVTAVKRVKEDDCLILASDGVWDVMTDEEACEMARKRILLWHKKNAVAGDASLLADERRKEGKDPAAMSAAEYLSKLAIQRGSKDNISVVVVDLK
Change,relative binding score [%]
V145H,31.1
I57F,18.5
E151H,91.3
T86N,99.6
Y18T,86.6
T1M,99
M176N,96.2
S42A,98.2
A84L,10.4
L93F,96.9
P50V,55
D96Y,45.1
V136Q,61.8
L20N,97.7
S104M,46
P146A,87
R45T,39.5
C60K,-27.7

# Sample 4 — target: CCND2, cyclin fold, Cln2 fusion (human); technique: yeast growth competition, sequencing; medium: yeast; setting: weak parent motif; relative to: not given; direction: higher = stronger binding
# Starting sequence: PKN2 docking peptide (human); VSAVQKLDFSDTM; partner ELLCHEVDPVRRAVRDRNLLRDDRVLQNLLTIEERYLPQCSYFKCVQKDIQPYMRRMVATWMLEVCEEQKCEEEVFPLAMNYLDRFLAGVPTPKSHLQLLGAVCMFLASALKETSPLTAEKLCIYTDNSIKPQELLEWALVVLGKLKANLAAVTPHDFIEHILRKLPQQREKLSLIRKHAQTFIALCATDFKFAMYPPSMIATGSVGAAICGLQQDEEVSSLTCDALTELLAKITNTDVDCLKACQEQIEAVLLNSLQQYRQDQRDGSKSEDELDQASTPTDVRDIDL
Change,normalised enrichment score
VLAVQKLDFSDTM [S2L],0.482
YSAVQKLDFSDTM [V1Y],1.03
VSAVQKLDFSDCM [T12C],0.715
VSAVQKLDFSQTM [D11Q],0.208
VSAVQKLDNSDTM [F9N],0.0222
VSAVQKLDFSDTI [M13I],0.84
VSIVQKLDFSDTM [A3I],0.586
VSAVQKLDFSDTW [M13W],0.674
VSAVQKLDFMDTM [S10M],0.578
MSAVQKLDFSDTM [V1M],0.43
VSAVQKLHFSDTM [D8H],0.0564
VSAVQKMDFSDTM [L7M],0.0745
VSAVQKLDFSHTM [D11H],0.427
VFAVQKLDFSDTM [S2F],0.293
VSAVQKLDFSPTM [D11P],0.665
VSAVQKLDPSDTM [F9P],-0.278
VSAVQKDDFSDTM [L7D],-0.135
VSAVQFLDFSDTM [K6F],0.0987
VSAVQKLDMSDTM [F9M],0.0287

# Some of these lines once more (sample 3):
Change,relative binding score [%]
S104M,46
Y18T,86.6
S42A,98.2
T1M,99
A84L,10.4
E151H,91.3
V136Q,61.8
I57F,18.5
